{"data": "Experimental data of several laboratories", "note": "Lines come from different studies, so protocols differ. Numbers after ± are the reported error."}
{"SMILES": "COCC1CN(C2CCN(c3cc(OC)c(Nc4ncc(Br)c(Nc5ccc6c(c5P(C)(C)=O)OCCO6)n4)cc3C)CC2)C1", "cell line": "Ba/F3 EGFR Del19/T790M/C797S", "assay": "cell growth, CellTiter-Glo", "conditions": "3 days", "IC50": "0.0249 µM"}
{"SMILES": "OCCc1cc(CN(Cc2ccccn2)Cc2ccccn2)c(O)c(CN(Cc2ccccn2)Cc2ccccn2)c1", "cell line": "CHO-K1", "assay": "cytotoxicity", "conditions": "72 h", "IC50": "> 100 µM"}
{"SMILES": "CCC(C(=O)O)C1CCC(C)C(C(C)C(O)C(C)C(=O)C(CC)C2OC3(C=CC(NCc4cn(-c5ccc(C(C)=O)cc5)nn4)C4(CCC(C)(C5CCC(O)(CC)C(C)O5)O4)O3)C(C)CC2C)O1 (stereo not drawn)", "cell line": "HMLER CD24low/CD44high", "assay": "cell proliferation", "conditions": "72 h", "IC50": "0.04 ± 0.01 µM"}
{"SMILES": "O=C(O)CCCc1ccccc1", "cell line": "A-375", "assay": "cell growth or viability", "conditions": "72 h", "IC50": "25.7 µM"}
{"SMILES": "CC(C)c1cccc(C(C)C)c1-n1ccn(-c2c(C(C)C)cccc2C(C)C)c1=[Se].[Cl][Au]", "cell line": "A2780 ADR", "assay": "MTT", "conditions": "72 h", "IC50": "0.3 ± 0.05 µM"}
{"SMILES": "C=C(C)C(O)COc1c2occc2cc2ccc(=O)oc12 (stereo not drawn)", "cell line": "L5178Y", "assay": "cell growth or viability, MTT", "conditions": "72 h", "IC50": "46.5 µM"}
{"SMILES": "CC[C@H](C)[C@H](N)C(=O)Nc1ccc2nc(Cc3c[nH]c4ccccc34)[nH]c2c1", "cell line": "HCT-15 (KRAS G13D)", "assay": "cell viability, CellTiter-Glo", "conditions": "72 h", "IC50": "14.3 ± 2.7 µM"}
{"SMILES": "O=c1ccn([C@@H]2O[C@H](CSSc3ccccn3)[C@@H](O)[C@H](F)[C@H]2O)c(=O)[nH]1", "cell line": "L1210", "assay": "cell growth or viability", "IC50": "9.5 µM"}
{"SMILES": "CC(C)c1cccc(C(C)C)c1N1CCN(c2c(C(C)C)cccc2C(C)C)C1=[Se].[Cl][Ag]", "cell line": "PSN1", "assay": "cell growth or viability, MTT", "conditions": "72 h", "IC50": "5.1 µM"}
{"SMILES": "CC(C)=CCc1c(OCC2OC2(C)C)ccc2ccc(=O)oc12 (stereo not drawn)", "cell line": "COLO 320 multidrug-resistant", "assay": "cell growth, MTT", "conditions": "72 h", "IC50": "47.9 ± 1.11 µM"}
{"SMILES": "FC(F)(F)c1n[nH]cc1-c1nc2ccc3[nH]ncc3c2c2c1CC2", "cell line": "MV4-11", "assay": "cell growth or viability, resazurin", "conditions": "72 h", "IC50": "1.53 µM"}
{"SMILES": "Cc1cc(C)c([N+]#[C][Pt-]([Cl])([Cl])=[C](Nc2cccc(CN[C](Nc3c(C)cc(C)cc3C)=[Au][Cl])c2)Nc2c(C)cc(C)cc2C)c(C)c1", "cell line": "OVCAR-3", "assay": "cell growth or viability", "IC50": "> 100 µM"}
{"SMILES": "C#CCOc1ccc(C(=O)c2ccc(NC(=O)C(=O)NCCc3ccc(OC)cc3)cc2)cc1", "cell line": "NCI-H2122", "assay": "cell growth or viability", "IC50": "0.014 µM"}
{"SMILES": "CC(C)c1cccc(C(C)C)c1-n1c(Cl)c(Cl)n(-c2c(C(C)C)cccc2C(C)C)c1=[Se].[Cl][Ag]", "cell line": "PSN1", "assay": "cell growth or viability, MTT", "conditions": "72 h", "IC50": "0.6 µM"}
{"SMILES": "CCCC(CCC)C(=O)[O][Pt]([NH2])([NH2])([Cl])([Cl])[O]C(=O)C(C)c1ccc(CC(C)C)cc1 (stereo not drawn)", "cell line": "2008 cisplatin-sensitive", "assay": "cytotoxicity, MTT", "conditions": "72 h", "IC50": "1.35 ± 0.29 µM"}
{"SMILES": "Cc1nn(-c2ccc(S(=O)(=O)N[C@@H](CO)CC(C)C)cc2)c2nn3nnnc3nc12", "cell line": "CCD-841CoN", "assay": "cell growth or viability, MTT", "conditions": "72 h", "IC50": "1.12 µM"}
{"SMILES": "CC(C)(C)N=[C](NCc1cccc(N)c1)[AuH][Cl]", "cell line": "OVCAR-3", "assay": "cell growth or viability", "IC50": "> 100 µM"}
{"SMILES": "CC(=O)OC[C@H]1O[C@@H](NC(=O)NC(=O)/C=C/c2ccc(-c3ccccc3)cc2)[C@H](OC(C)=O)[C@@H](OC(C)=O)[C@@H]1OC(C)=O", "cell line": "L1210", "assay": "cell growth or viability", "conditions": "48 h", "IC50": "91 µM"}
{"SMILES": "N#Cc1c(-c2ccc(Cl)cc2)cc(-c2cccc3ccccc23)nc1Nc1ccc(Nc2nc(-c3cccc4ccccc34)cc(-c3ccc(Cl)cc3)c2C#N)cc1", "cell line": "RKOp27", "assay": "cell growth or viability, MTT", "conditions": "72 h", "IC50": "0.725 µM"}
{"SMILES": "CC(C)c1cccc(C(C)C)c1[N+]#[C][Pd-2]([Cl])([Cl])[C]#[N+]c1c(C(C)C)cccc1C(C)C", "cell line": "OVCAR-3", "assay": "cell growth or viability", "IC50": "> 100 µM"}
{"SMILES": "Cc1c(C)n(-c2c(C(C)C)cccc2C(C)C)c(=[Se])n1-c1c(C(C)C)cccc1C(C)C.[Cl][Ag]", "cell line": "H157 spheroids", "assay": "acid phosphatase", "conditions": "72 h, 3D spheroid", "IC50": "11.4 ± 4.6 µM"}
{"SMILES": "COc1ccc([C@@H]2CC(=O)c3c(O)cc(O[C@@H]4O[C@H](CO[C@@H]5O[C@@H](C)[C@H](O)[C@@H](O)[C@H]5O)[C@@H](O[C@H]5O[C@H](CO)[C@@H](O)[C@H](O)[C@H]5O)[C@H](O)[C@H]4O)cc3O2)cc1O", "cell line": "MRC5", "assay": "cell growth or viability, MTS", "conditions": "72 h", "IC50": "149 µg/mL"}
{"SMILES": "CC(=O)OC[C@H]1O[C@@H](NC(=O)/C=C/c2ccc(C(C)C)cc2)[C@H](OC(C)=O)[C@@H](OC(C)=O)[C@@H]1OC(C)=O", "cell line": "L1210", "assay": "cell growth or viability", "conditions": "48 h", "IC50": "110 µM"}
{"SMILES": "CCCCN(C)C(=S)SC[C@@H]1C(=O)O[C@H]2[C@H]1CC/C(C)=C/CC[C@@]1(C)O[C@@H]21", "cell line": "KG-1a", "assay": "cell growth or viability, MTT", "conditions": "72 h", "IC50": "15.3 µM"}
{"SMILES": "N#CCOc1ccc(-c2ccc3[nH]c4ncc(/C=C/c5ccccc5)cc4c3c2)cc1", "cell line": "parental Ba/F3 (IL-3 dependent)", "assay": "cell proliferation, [3H]-thymidine incorporation", "IC50": "> 10 µM"}
{"SMILES": "CC(C)=CCc1c2c(c(O)c3c(=O)c(-c4ccc(O)cc4O)coc13)C=CC(C)(C)O2", "cell line": "MDA-MB-231, Huh-7, KKU100, NHDF cells", "assay": "cell viability, MTT", "conditions": "24 h", "IC50": "13.9 to 30.9 µM"}
{"SMILES": "Cl.[Cl][Ru-]1[S+]=C(NC2CCCCC2)N[N+]1=Cc1ccc(N(c2ccccc2)c2ccccc2)cc1.c1ccccc1", "cell line": "HeLa S3", "assay": "cytotoxicity, MTT", "conditions": "24 h", "IC50": "> 100 µM"}
{"SMILES": "CCN(C(=O)c1cc(F)ccc1Oc1nncnc1N1CCC2(C1)CN([C@H](CCCN(C)CCOC)C(C)C)C2)C(C)C", "cell line": "KMT2A-rearranged AML lines except THP-1", "assay": "cell growth", "IC50": "< 0.1 µM"}
{"SMILES": "CCCN(CCC)C(=S)SC[C@@H]1C(=O)O[C@H]2[C@H]1CC/C(C)=C/CC[C@@]1(C)O[C@@H]21", "cell line": "KG-1a", "assay": "cell growth or viability, MTT", "conditions": "72 h", "IC50": "50 µM"}
{"SMILES": "COc1ccc(C[C@H]2COC(=O)[C@@H]2Cc2ccc(OCCCCCCCCCC(=O)NO)c(OC)c2)cc1OC", "cell line": "MV4-11", "assay": "cell growth or viability, CCK-8", "conditions": "48 h", "IC50": "> 5 µM"}
{"SMILES": "COC(=O)[C@H]1[C@H]2C[C@H]3O[C@@]4(CCN3C[C@H]2C[C@@H](OC(=O)c2cc(OC)c(OC)c(OC)c2)[C@@H]1OC)C(=O)Nc1cc(OC)ccc14", "cell line": "SU-DHL-4", "assay": "cell growth or viability, trypan blue", "conditions": "72 h", "IC50": "61.4 µM"}
{"SMILES": "CC1OC(OCC2OC(Oc3cc(O)c4c(=O)cc(-c5ccc(O)c(O)c5)oc4c3)C(O)C(O)C2O)C(O)C(O)C1O (stereo not drawn)", "cell line": "CEM/ADR5000 P-gp overexpressing", "assay": "cell viability, resazurin reduction", "conditions": "72 h", "IC50": "> 100 µM"}
{"SMILES": "O=C(Nc1ccn([C@@H]2O[C@H](CO)[C@@H](O)[C@H](F)[C@H]2O)c(=O)n1)c1ccccc1", "cell line": "L1210", "assay": "cell growth or viability", "IC50": "> 200 µM"}
{"SMILES": "Cc1n[nH]c(C)c1-c1nc2ccc3[nH]ncc3c2c2c1CCCC2", "cell line": "MV4-11", "assay": "cell growth or viability, resazurin", "conditions": "72 h", "IC50": "0.159 µM"}
{"SMILES": "CC(C)C[C@H](NC(=O)[C@H](CO)NC(=O)[C@H](Cc1c[nH]cn1)NC(=O)CCc1cn(CC(=O)OCC(=O)[C@@]2(O)[C@H](C)C[C@H]3[C@@H]4CCC5=CC(=O)C=C[C@]5(C)[C@@]4(F)[C@@H](O)C[C@@]32C)nn1)C(=O)NCC(=O)N[C@@H](CCCCN)C(=O)N[C@@H](Cc1c[nH]c2ccccc12)C(=O)N[C@@H](CC(C)C)C(=O)NCC(=O)N[C@@H](Cc1c[nH]cn1)C(=O)N1CCC[C@H]1C(=O)N[C@@H](CC(=O)O)C(=O)N[C@@H](CCCCN)C(=O)N[C@@H](Cc1ccccc1)C(=O)O", "cell line": "EAE splenocytes at disease peak", "assay": "cellular metabolism", "conditions": "120 h", "scale": "relative to: untreated EAE splenocytes", "IC50": "0.00755 ± 0.0028 µM"}
{"SMILES": "CC(C)(C)OC(=O)N1CCN(CCNC2=C(Cl)C(=O)c3ccccc3C2=O)CC1", "cell line": "HEC-1-A", "assay": "cell growth or viability, MTT", "conditions": "48 h", "IC50": "15.8 µM"}
{"SMILES": "O=C(NCc1cc(F)cc(F)c1)[C@@]1(O)CCN(c2ccc3[nH]ccc3c2)C1=O", "cell line": "A549 mock clone", "assay": "cell viability, CellTiter-Blue", "conditions": "96 h", "IC50": "0.12 µM"}
{"SMILES": "C=C[CH2][Pd-]([Cl])[Cl].CC(C)c1cccc(C(C)C)c1-n1c[n+](-c2c(C(C)C)cccc2C(C)C)c2c1-c1cccc3cccc-2c13", "cell line": "PSN1", "assay": "cell growth or viability, MTT", "conditions": "72 h", "IC50": "5 µM"}
{"SMILES": "O=C(NO)c1ccc(Cn2sc3ccccc3c2=O)cc1", "cell line": "KMS-11", "assay": "cell growth or viability, ATP luminescence", "conditions": "72 h", "IC50": "2.5 µM"}
{"SMILES": "COC1CCC(Nc2nc(-c3nccn3C)nc3sc(-c4ccn(C)n4)c(-c4ccccc4)c23)C1 (stereo not drawn)", "cell line": "NCI-H1975 (KRAS wild type)", "assay": "Western blot, measured: phospho-MEK and phospho-ERK1/2", "conditions": "6 h, added: EGF 15 min", "IC50": "~5 µM"}
{"SMILES": "COc1cccc(-c2ccc(Nc3ccc(CN(C)C)cc3)c(OC)c2F)c1", "cell line": "A-375", "assay": "HTRF, measured: total Akt", "IC50": "> 1000 µM"}
{"SMILES": "C=CCc1ccc(OCc2nnc(SCC(=O)Nc3ccc(Cl)cc3Cl)o2)c(OC)c1", "cell line": "MCF7, SK-OV-3, PC-3", "assay": "cell growth, MTT", "IC50": "≤ 10 µM"}
{"note": "Repeated from above:"}
{"SMILES": "CCCCN(C)C(=S)SC[C@@H]1C(=O)O[C@H]2[C@H]1CC/C(C)=C/CC[C@@]1(C)O[C@@H]21", "cell line": "KG-1a", "assay": "cell growth or viability, MTT", "conditions": "72 h", "IC50": "15.3 µM"}
{"SMILES": "O=C(Nc1ccn([C@@H]2O[C@H](CO)[C@@H](O)[C@H](F)[C@H]2O)c(=O)n1)c1ccccc1", "cell line": "L1210", "assay": "cell growth or viability", "IC50": "> 200 µM"}
{"SMILES": "CC(C)c1cccc(C(C)C)c1N1CCN(c2c(C(C)C)cccc2C(C)C)C1=[Se].[Cl][Ag]", "cell line": "PSN1", "assay": "cell growth or viability, MTT", "conditions": "72 h", "IC50": "5.1 µM"}
{"SMILES": "CC(C)=CCc1c2c(c(O)c3c(=O)c(-c4ccc(O)cc4O)coc13)C=CC(C)(C)O2", "cell line": "MDA-MB-231, Huh-7, KKU100, NHDF cells", "assay": "cell viability, MTT", "conditions": "24 h", "IC50": "13.9 to 30.9 µM"}
{"SMILES": "CCN(C(=O)c1cc(F)ccc1Oc1nncnc1N1CCC2(C1)CN([C@H](CCCN(C)CCOC)C(C)C)C2)C(C)C", "cell line": "KMT2A-rearranged AML lines except THP-1", "assay": "cell growth", "IC50": "< 0.1 µM"}
{"SMILES": "COc1cccc(-c2ccc(Nc3ccc(CN(C)C)cc3)c(OC)c2F)c1", "cell line": "A-375", "assay": "HTRF, measured: total Akt", "IC50": "> 1000 µM"}
